Published values from different studies.
A part holds a random share of what one study measured.

Series 1 — technique: protein binding microarray; molecule type: double-stranded DNA, one strand shown; medium: in vitro; tested at: not given; baseline: not given; reading: higher = stronger binding
Target: Histone acetyltransferase KAT6A, winged helix 1, GST fusion (KAT6A, Homo sapiens, UniProt Q92794, residues 1-85)
Setting: 8-mer, flanks averaged, mean of 2 arrays, mostly near background
Target sequence (chain): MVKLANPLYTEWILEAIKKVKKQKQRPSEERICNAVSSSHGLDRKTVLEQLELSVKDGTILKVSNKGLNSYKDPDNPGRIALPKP
Strand | E-score
AGTATACT | -0.148
AACACGCC | 0.294
ATTATAAA | -0.0902
ATTCACTC | -0.169

Series 2 — technique: protein-binding microarray; molecule type: double-stranded DNA, one strand shown; medium: in vitro; tested at: 0.8 µM; setting: whole 60-bp probe, no competitor; reading: higher = stronger binding
Target: Centromere-binding protein 1, full length, N-terminal tag (CBF1, Saccharomyces cerevisiae, UniProt P17106, residues 1-351)
Chain of UniProt P17106 (whole entry, looked up): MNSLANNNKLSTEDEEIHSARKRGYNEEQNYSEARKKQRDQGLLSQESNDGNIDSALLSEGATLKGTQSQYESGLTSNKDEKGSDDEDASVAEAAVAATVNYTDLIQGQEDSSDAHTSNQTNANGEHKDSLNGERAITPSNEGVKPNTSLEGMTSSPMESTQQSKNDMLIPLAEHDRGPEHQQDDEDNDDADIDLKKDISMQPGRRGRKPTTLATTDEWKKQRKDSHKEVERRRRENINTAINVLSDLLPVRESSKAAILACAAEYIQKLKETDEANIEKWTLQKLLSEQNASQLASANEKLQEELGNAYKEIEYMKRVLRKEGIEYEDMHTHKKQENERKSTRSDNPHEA
Strand | fluorescence intensity
CTAGTTCAAAGCGATCACGAATATTTTAAGAACTTCGTCTTGATTCGCTTGACGCTGCTG | 586 a.u.
GAAAAGTAGATTCTCCTGATGACCCATTCATGATAGGTCTTGATTCGCTTGACGCTGCTG | 486 a.u.
CTAACGCGTTCGCTTCACGTGATGTTCCTTTTCTTCGTCTTGATTCGCTTGACGCTGCTG | 10800 a.u.

Series 3 — target: Sox, HMG box (Pigoraptor chileana); technique: Spec-seq; molecule type: double-stranded DNA, one strand shown; medium: in vitro; tested at: not given; setting: whole probe, mean of replicates; baseline: not given; reading: lower = stronger binding
Residues (chain): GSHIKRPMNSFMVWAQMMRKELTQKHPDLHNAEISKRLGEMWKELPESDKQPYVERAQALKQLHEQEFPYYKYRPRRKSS
Strand | relative binding energy [ln ratio]
GAGTCGTCTCGTCAGCACACGTGTTCCGTAGAGCACTCAGGTC | -0.37
GAGTCGTCTCGTCAGCACCATGCCGCCGTAGAGCACTCAGGTC | 0.684
GAGTCGTCTCGTCAGCACCATTTAGCCGTAGAGCACTCAGGTC | 0.115

Mixed results
Substance | target | assay | test system | conditions | how to read | endpoint | result
PhoQ, residues 284 288 289 292 302 303 TVTVVA | PhoP, residues 12 14 15 18 19 NQCAL (Escherichia coli, UniProt P23836) | Sort-seq, item: YFP reporter | E. coli | PhoQ-PhoP variant library, added: 10 µM Mg2+ | baseline: high Mg2+ state, higher = stronger signaling | fold induction | 10.5

Excerpt of the above (series 1):
Strand | E-score
AACACGCC | 0.294
ATTATAAA | -0.0902
